Measurements of several laboratories.
Parts stem from different laboratories: compare values within a part only.

Series 1
Target: Centromere-binding protein 1, full length, N-terminal tag (CBF1, Saccharomyces cerevisiae, UniProt P17106, residues 1-351)
Chain of UniProt P17106 (whole entry, looked up): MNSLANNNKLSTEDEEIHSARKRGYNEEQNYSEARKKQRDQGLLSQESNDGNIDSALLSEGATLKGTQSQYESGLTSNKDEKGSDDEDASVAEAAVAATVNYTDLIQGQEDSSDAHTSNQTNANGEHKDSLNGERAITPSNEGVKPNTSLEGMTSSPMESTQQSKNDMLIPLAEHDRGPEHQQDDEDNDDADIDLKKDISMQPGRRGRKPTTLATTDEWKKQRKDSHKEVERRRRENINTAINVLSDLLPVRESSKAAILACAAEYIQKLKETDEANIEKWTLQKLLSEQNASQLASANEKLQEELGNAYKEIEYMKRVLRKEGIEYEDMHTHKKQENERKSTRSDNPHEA
Method: protein-binding microarray
Form: double-stranded DNA, one strand shown
Sample: in vitro
Tested at: 0.8 µM
Setting: whole 60-bp probe, no competitor
Direction: higher = stronger binding
Strand	fluorescence intensity [a.u.]
GAATGATTGTACATTCATGTGATAATTTGACGCTAGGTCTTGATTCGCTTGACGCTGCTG	861
CTAAACGAGCTAGATCATGTGAGAGAGATAGTATTCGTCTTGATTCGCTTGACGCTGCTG	1620
CTATTATCTCTTAGATATCACATGTGATTACCCTTCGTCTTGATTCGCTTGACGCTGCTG	4710
CTATGTTAGTATCCAAGTGTGACCAACATGTTCTTCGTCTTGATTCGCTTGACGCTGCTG	619
GAATGTATAGGCAACCACGCGTTACAAAGTAAGTAGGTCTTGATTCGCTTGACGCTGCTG	606
CTATTCAGATTGCATCATCAGAAAAGTAAAAATTTCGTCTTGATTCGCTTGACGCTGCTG	534
TGTACGAAGCTATCGCACGTGGCTATAGTAGTTAGGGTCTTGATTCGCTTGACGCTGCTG	3980
GAAATCAGCTTAATTCACGGGATGTTACTTATCTAGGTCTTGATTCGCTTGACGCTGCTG	617
CTACTTGCTATAGATCACGCACCCTTTTGGCAATTCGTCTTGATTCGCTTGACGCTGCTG	1160
CTACTAAACAATGGTGATGATATGTTAAACTATTTCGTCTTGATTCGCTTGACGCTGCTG	540
GAAGAAGATGATGATCACGGCTTGGAGGATGACTAGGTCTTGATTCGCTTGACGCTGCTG	580
CTAATTGCTCAACAAAGCGTGTCTTTTTCTGTGTTCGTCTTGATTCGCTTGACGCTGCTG	507
TGTACGAAGCTATTTCACATGGGTATAGTAGTTAGGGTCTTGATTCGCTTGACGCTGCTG	579
TGTACGAAGCTATCACACACGCCTATAGTAGTTAGGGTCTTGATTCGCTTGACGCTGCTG	531
CTACAATCCCGGGATGACGTCAAGATAGACAGTTTCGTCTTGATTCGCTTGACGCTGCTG	505
GAAATTTCCAGTGTGCACGGGTTGAAATAAATGTAGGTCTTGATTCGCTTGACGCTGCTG	1140
CTATAGTTGAGTTTTCACTCACGTACAGCTAGATTCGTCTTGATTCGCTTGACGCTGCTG	578
GAAAAATGTGTTGAAAACGTGCTAAACAACAATTAGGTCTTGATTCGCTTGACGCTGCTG	786

Series 2
Target: Hepatocyte nuclear factor 3-alpha (Foxa1, Mus musculus, UniProt P35582, residues 1-468, full length assumed)
Method: EMSA with sequencing
Form: double-stranded DNA, one strand shown
Sample: in vitro
Tested at: 10 and 20 nM
Setting: whole designed probe, mean of two concentrations, ends assumed
Reference: negative control set to 0
Direction: higher = stronger binding
Residues (chain): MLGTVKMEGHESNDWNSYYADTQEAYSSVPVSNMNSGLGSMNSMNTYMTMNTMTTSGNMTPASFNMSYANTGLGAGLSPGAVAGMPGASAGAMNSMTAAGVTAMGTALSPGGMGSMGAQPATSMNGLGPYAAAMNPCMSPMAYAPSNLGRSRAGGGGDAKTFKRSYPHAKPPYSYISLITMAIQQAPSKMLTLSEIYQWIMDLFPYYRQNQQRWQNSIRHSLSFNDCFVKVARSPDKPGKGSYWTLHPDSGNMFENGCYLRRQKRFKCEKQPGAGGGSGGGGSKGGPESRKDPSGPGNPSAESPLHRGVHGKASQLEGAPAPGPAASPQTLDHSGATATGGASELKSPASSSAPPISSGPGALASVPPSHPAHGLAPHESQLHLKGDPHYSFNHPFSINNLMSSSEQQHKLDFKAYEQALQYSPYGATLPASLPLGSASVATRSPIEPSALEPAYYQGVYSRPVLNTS
Strand	normalised bound fraction [ratio]
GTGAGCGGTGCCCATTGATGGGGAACCTGAGGCGCTGCAGGCCCGGCTTCTGGCTGCGGGGGAGCTGTACCCTGAAGCCTCGCCGGAACTCGCGTCTGGGGCCAGCAGGGGGCACTAGAGTCATCTGGGACTGTATGCAAAACCCACTTCCTCCCAGGCCCTCTAGGGGGATGGTCAGGCTTCTGCAGAGATGGGGAGGATCCTTTCCTGGTAAGGGGATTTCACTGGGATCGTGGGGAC	-0.0692
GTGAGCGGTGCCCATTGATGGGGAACAATAAGGGGGTAGCAGGGCAAAGCCATTTCACAGATCTGTAAACAAACTGCAATGCTGACCTCTGGTTTCCCTAACTAAGAGCTTTCACAAAGTAAACATGTTATTTAAAAATAATATCTCAAATAGCCATGCAGTTATGATGCGCAGTTTAACTGAGGTGGGGGAGATTCTCAGAGGGAAGAACCCAGAGATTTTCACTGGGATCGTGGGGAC	0.476
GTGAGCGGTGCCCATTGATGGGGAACTGATGAGAAACATGATAATTATTTAGTCTGAAAGGATCTTCTCCAATAATTTTTTTTTGTCGTGATACATTCCTTCTCCACCCCCGACTAAATGCAAACAAACCTAAATTGAGGGAAATTCTATGCAATACCTAACCATTATTCATCAAATGTACACAGGAGTACAGTGACACAATCATGGTTCACTGTAACCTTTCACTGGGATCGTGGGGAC	0.322
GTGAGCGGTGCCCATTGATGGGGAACCCCTCATCCTGGGTGTCGGGGTGGGAGGTGTTCTCATCATGAATGGGAGGCGTACCCAGATCCAGCTCTGCCTTTTTTTAACCAAACCACATTTGTTTACACTCGCTGGTGACTCACCATTAATCGACATAGCAAGATATGATACATGCCAGGAGAGAAAAAGAAAGTGCTGATGGAAAAATAATCTCATTAGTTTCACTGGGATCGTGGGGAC	0.239
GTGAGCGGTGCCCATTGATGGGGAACGGTAAATGCACCTTTAATTGATAAGACAGACAATTTTTGTAAAAGAATTGGAAAACCATCTGTACTGTAAACTTTTGTGTCTCTTTTTCATTCCTGTTTACTCTGCTATTCAATCCAAATAAAGATTGTTTTCACCTCAGCAACACAAAAATCACATAGACGATCCTTCAGGCTGTCAGTCAGAGGAAAGATATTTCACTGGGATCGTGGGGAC	0.19
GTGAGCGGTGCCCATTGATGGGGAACAGTTGCAGTCCAGGAAAAAGAAGGCACAAACACTGCTGATCAAATATTACTAAAGCTTTTATGGACTCTTGAACCTCATTTTCCCTCCCATATGTACACAAGACACACTTCATTCTTACTCTGTTTATGCCTCTCTGTCTAATAGAAACTTCACTTCTGACTCCAGCTTTGTCTAATTATTAACACAGAGAGGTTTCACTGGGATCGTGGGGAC	0.282
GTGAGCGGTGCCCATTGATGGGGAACTTGGAGACTAACAGAAGGAATATATATTTTTTGAAGAGAAAAAAAACACAATTATCTTATTTTTGTCCTGGCTCTAACTTTGGCCAGTGTCAAAGTAAACAGGATAGATGGCTTCTCCATGCTAAATGATGCTAGATTAACATTGAAAGAAAAATTATAGTGATCAGTTATTTCAGTTTCAAATGTCCCAAATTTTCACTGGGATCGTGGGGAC	0.228
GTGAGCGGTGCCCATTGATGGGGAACCTTTAATATTGTGGACTTGTGACTGGTTTGCCTTTCTTATTCAAGACAGTTTGATATGAATTATTTTGTTTTTAAAGGAACAAGAAAACTGATGTTTACATAGAGTTTATTATGAAAATATGGACAAATTATGTTTGTAAAATTTGCTGTGGTTCAATTTATCTAACAAAGCAAGAAGTGTAACACTTAATCTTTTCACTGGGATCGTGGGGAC	0.394

Series 3
Target: PABPC1L2, full length, GST fusion (mouse, UniProt A0ABA7IW68)
Method: RNAcompete
Form: RNA
Sample: in vitro
Tested at: 20 nM
Setting: 7-mer, probes averaged, single round
Reference: mean of 7-mers
Direction: higher = stronger binding
Target sequence (chain): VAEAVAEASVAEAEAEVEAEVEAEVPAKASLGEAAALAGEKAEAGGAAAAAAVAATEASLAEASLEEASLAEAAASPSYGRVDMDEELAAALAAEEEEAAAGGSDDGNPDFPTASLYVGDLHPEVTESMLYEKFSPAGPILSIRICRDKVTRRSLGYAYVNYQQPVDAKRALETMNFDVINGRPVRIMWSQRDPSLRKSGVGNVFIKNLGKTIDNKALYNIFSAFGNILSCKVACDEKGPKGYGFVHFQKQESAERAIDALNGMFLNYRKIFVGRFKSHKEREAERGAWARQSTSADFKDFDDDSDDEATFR
Strand	7-mer Z-score
CACAAAC	0.671
GGCCUAC	-0.0428
GCUAUGC	-0.222
ACCAUAC	-0.144
AGUCGGC	-0.159
GGCGAUU	0.148
UGCCGGC	-0.233
UAAUAGC	-0.18
GAUUACU	-0.224
UGUGUAG	-0.264
AAGCAGA	0.287

Series 4
Target: Ras GTPase-activating protein-binding protein 1, RRM domain (G3BP1, Homo sapiens, UniProt Q13283)
Chain of UniProt Q13283 (whole entry, looked up): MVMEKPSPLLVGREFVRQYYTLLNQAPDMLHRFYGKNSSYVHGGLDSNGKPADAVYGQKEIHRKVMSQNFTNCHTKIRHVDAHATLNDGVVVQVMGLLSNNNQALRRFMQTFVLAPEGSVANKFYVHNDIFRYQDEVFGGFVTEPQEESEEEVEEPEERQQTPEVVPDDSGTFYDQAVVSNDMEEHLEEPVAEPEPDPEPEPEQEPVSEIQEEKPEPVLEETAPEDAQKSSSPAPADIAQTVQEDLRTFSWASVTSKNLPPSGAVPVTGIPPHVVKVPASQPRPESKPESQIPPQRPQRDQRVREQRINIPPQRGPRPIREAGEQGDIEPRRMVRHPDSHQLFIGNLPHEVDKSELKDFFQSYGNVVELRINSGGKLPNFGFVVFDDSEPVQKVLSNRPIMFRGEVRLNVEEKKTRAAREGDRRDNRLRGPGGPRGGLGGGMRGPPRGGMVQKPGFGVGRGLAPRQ
Method: RNA Bind-n-Seq
Form: RNA
Sample: in vitro
Tested at: 1 µM
Setting: whole 134-nt RNA, ends assumed
Added: 150 mM KCl
Reference: input library
Direction: higher = stronger binding
Strand	log2 enrichment
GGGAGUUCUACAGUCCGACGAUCCAAGUCCUGUGCUACACAUCGUAUGUACCGAAUCGGGCCCGGGGCCCGGGCCCGGGAAAGUAUUAUGUUACGCCGUUCGGAUCUGCACUUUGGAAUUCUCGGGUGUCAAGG	-0.775
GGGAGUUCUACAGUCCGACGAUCUGGUUCUGGCAUUUAUGACCCUUGUGAAAAAGAAGCCACUGAUGCUAUUGGGCAUCUAGACAGACAGCAACGGGAAGAUAUCACACAGAGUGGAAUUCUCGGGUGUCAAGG	-0.14
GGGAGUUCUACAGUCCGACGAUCUGGGAGGUGGAUUUUGUUUAUUUUUUUAGCUCAUUUCCAGGGGUGGGAAUUUUUUUUUAAUAUGUGUCAUGAAUAAAGUUGUUUUUGCAAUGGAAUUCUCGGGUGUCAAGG	1.4
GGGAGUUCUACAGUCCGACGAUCACCAUGCAGGUGGGCAUCUUUGGGAAGUGGGGCAAGGGGGGGAAAGGGAGGGGGGUAACACUUUGGGAACAGGUGGUCCCAGGUCGUUUCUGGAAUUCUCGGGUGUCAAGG	-0.181
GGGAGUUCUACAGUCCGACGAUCUGGGAGGUGGAUUUUGUUUAUUUUUUUAGAUCAUUUCCAGGGGUGGGAAUUUUUUUUUAAUAUGUGUCAUGAAUAAAGUUGUUUUUGAAAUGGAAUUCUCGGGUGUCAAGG	2.37
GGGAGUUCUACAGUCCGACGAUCCCUGUGCUACACAUCGUAUGUACCGAAUCGGGAAAAAGGGAAAAAAAGGGAAAAAAAGGGAAAGUAUUAUGUUACGCCGUUCGGAUCUGCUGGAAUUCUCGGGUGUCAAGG	-0.00187
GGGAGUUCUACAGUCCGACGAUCAGUCCUGUGCUACACAUCGUAUGUACCGAAUCGGGGUUUUUGGGGUUUGGGGAGGGGAAAGUAUUAUGUUACGCCGUUCGGAUCUGCACUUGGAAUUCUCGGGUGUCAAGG	1.3
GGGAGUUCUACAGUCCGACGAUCGCAGGAAGUAAAAACAAAUGGAAAUGCUUCGGAUAGUCGCAGGGGUGGGGGUUGCUAAGGAAAGGGUGGGAUGGGAGUGGGUAAAGAGUUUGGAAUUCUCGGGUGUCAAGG	0.784
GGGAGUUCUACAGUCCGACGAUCUGGGAAGUGGAUUUUGUUUAUUUUUUUAGCUCAUUUCCAGGGGUGGGAAUUUUUUUUUAAUAUGUGUCAUGAAUAAAGUUGUUUUUGAAAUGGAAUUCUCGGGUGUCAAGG	1.62
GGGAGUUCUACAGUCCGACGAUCUUCUUUGCCCAACGGGGCCGUGGAUACCUGCCUUUUAAUUCUUUUUUAUUCGCCCAUCGGGGCCGCGGAUACCUGCUUUUUAUUUUUUUUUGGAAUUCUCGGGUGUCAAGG	-0.413
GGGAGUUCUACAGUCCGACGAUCCAAGUCCUGUGCUACACAUCGUAUGUACCGAAUCGGCCCGGCCCGGGGCCCGGGGAAAGUAUUAUGUUACGCCGUUCGGAUCUGCACUUCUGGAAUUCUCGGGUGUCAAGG	-0.735
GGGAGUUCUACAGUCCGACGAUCUGGGAGGUGGAUUUUGUUUAUGUUUUUAGCUCAUUUCCAGGGGUGGGAAUUUUUUUUUAAUAUGUGUCAUGAAUAAAGUUGUUUUUGAAAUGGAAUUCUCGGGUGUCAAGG	1.35

Series 5
Target: Histone acetyltransferase KAT6A, winged helix 2, GST fusion (KAT6A, Homo sapiens, UniProt Q92794, residues 85-181)
Method: protein binding microarray
Form: double-stranded DNA, one strand shown
Sample: in vitro
Tested at: not given
Setting: 8-mer, flanks averaged, mean of 2 arrays, mostly near background
Reference: not given
Direction: higher = stronger binding
Target sequence (chain): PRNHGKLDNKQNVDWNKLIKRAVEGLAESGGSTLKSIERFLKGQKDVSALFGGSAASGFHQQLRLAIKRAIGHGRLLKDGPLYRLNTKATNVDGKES
Strand	E-score
AGTATAAG	-0.0399
GACGCGAC	0.0508
GCAGTCTA	-0.114
AAGGTGGG	0.108
TAGCTGAA	-0.0155
CACGAGCC	0.0046
ATACTATG	0.0401
CAGAAACC	0.111
ACCCTTCC	-8.5e-05
AGCGGTGC	0.115
AATGGTGG	-0.0693
GTAGCTAC	-0.131
GTAGGCCA	0.0813
CAGTTGAC	-0.00469
GTTGTGGA	-0.158
AGGTCCGC	0.0861
CGAGTAGC	0.0732
CGATAAGC	-0.0543
CGGTTTGA	0.0488
AATGCGCA	0.0723
CTGTTGGA	0.113
GTCTTGGA	-0.208
CCCACGCA	0.254
CCGGACAA	-0.0577
AGCCCGGA	0.11

Some of these lines once more (series 5):
Strand	E-score
AGGTCCGC	0.0861
GCAGTCTA	-0.114
CGATAAGC	-0.0543
ATACTATG	0.0401
AGCGGTGC	0.115
GTAGCTAC	-0.131
GTTGTGGA	-0.158
AGTATAAG	-0.0399
ACCCTTCC	-8.5e-05
AAGGTGGG	0.108
